# Measured values from different studies.
# Compare with care: the assays were run in different laboratories. “And” joins repeats or separate records; there may be more than shown. Numbers after ± are the reported error.
SMILES,test,test system,conditions,scale,endpoint,value
CN(O)C(=O)CCC(=O)NCCCN(CCCCN(CCCNC(=O)CCC(=O)N(C)O)C(=O)CCC(=O)N(C)O)C(=O)CCC(=O)N(C)O.[89Zr],,"mouse, blood",4 h,,tracer uptake,0.01 %ID/g
CN1CCC[C@]1(C)/C=C/S(=O)(=O)NC(=O)Nc1c2c(cc3c1CCC3)CC=C2,,"human, plasma","oral, 12.5 mg twice daily of parent drug, day 14, metabolite of dosed drug",,Cmax at first steady-state dose,7500 ng/mL
O=C1C2CC3CC1CC(C(=O)N1CCN(c4ccc([N+](=O)[O-])c5ncccc45)CC1)(C3)C2,,"ICR mouse, male, plasma","oral, 5 mg/kg",,apparent volume of distribution (Vz/F),219 L/kg
Fc1cccc(-n2cc(-c3ccccc3)nc2NCc2ccc(C(F)(F)F)c(Br)c2)c1,,"CD-1 mice, male, intestine","intraperitoneal, 25 mg/kg, single dose",,AUC(0-last),662000 ng·h/mL
CC(C)=CCC1=C([O-])C(=O)c2ccccc2C1=O.CC(C)=CCC1=C([O-])C(=O)c2ccccc2C1=O.O.[Cu+2].c1ccc(-c2ccccn2)nc1,cyclic voltammetry,"CH2Cl2, Bu4NPF6",0.1 mM,baseline: Ag/AgCl sat. KOH,Epa1 anodic peak potential,1.45 V
CNc1cc(N)c(C(N)=O)cn1,,"Han Wistar rats, male, plasma","oral, 30 mg/kg, 3.00 h",,concentration at time,8.01 µM
O=C(c1ccccc1)N1C(c2ccc(OCC3CCN(CCCF)C3)cc2)c2ccc(O)cc2CC12CC2 (centres unmarked),,"C57BL/6J mouse, plasma","oral, 25 mg/kg",,AUC(0-t),2760 ng·h/mL
COCC1CN(C2CCN(c3cc(OC)c(Nc4ncc(Br)c(Nc5ccc6c(c5P(C)(C)=O)OCCO6)n4)cc3C)CC2)C1,phase 1 trial,"human, advanced EGFR-mutant NSCLC","oral, dose not given",,patients with any adverse event,100%
COc1ccc(F)cc1C(=O)NCc1ccc(-c2nn([C@@H](C)C(F)(F)F)c(N)c2C(N)=O)cc1,,"male human, plasma","intravenous, 22 µg",,clearance,28.2 mL/min
C=C(NC(=O)c1csc(-c2nc3c(cc2O)-c2nc(cs2)C(=O)NC(C(C)O)C(=O)NC(=C(C)OC)c2nc(cs2)C(=O)NC2c4nc(cs4)C(=O)NC(COC(=O)c4c5c6c(cccc6n4O)COC(=O)C(OC4CC(C)(O)C(N(C)C)C(C)O4)C2OC5)c2nc-3cs2)n1)C(N)=O (centres unmarked),,"male cynomolgus monkey, plasma","intravenous, 1 mg/kg, single dose, infusion",,AUC(0-t),8590 ng·h/mL
COc1ccc(C(N)=O)cn1,,"Han Wistar rats, male, plasma","oral, 30 mg/kg, 0.25 h",,concentration at time,113 µM
Cc1cccc(-c2cccc(C)n2)n1.Cc1cccc(-c2cccc(C)n2)n1.F[P-](F)(F)(F)(F)F.F[P-](F)(F)(F)(F)F.[Ru+2].c1ccc2c(-c3nc4c5cccnc5c5ncccc5c4[nH]3)c3ccccc3cc2c1,,aerated acetonitrile,298 K,baseline: Ru(bpy)3(PF6)2,singlet oxygen quantum yield,0.08
[123I]c1ccc2nc(-c3ccc(-n4ccnn4)nc3)cn2c1,,"male Wistar rat, liver","intravenous, 4 MBq, 3 h",,tracer uptake,0.23 %ID/g
C=CC(=O)Nc1cc(Nc2nccc(-c3cn(C)c4ccccc34)n2)c(OC)cc1N(C)CCNC,storage stability,human plasma,"10 d, on ice, LLOQ level",,recovery,61.6%
Cc1ncsc1-c1ccc(CNC(=O)[C@@H]2C[C@@H](O)CN2C(=O)[C@@H](NC(=O)COCC(C)(COCCOCCOCCNC(=O)C[C@@H]2N=C(c3ccc(Cl)cc3)c3c(sc(C)c3C)-n3c(C)nnc32)COCCOCCOCCNC(=O)C[C@@H]2N=C(c3ccc(Cl)cc3)c3c(sc(C)c3C)-n3c(C)nnc32)C(C)(C)C)cc1,,"male C57BL/6 mice, plasma","subcutaneous, 5 mg/kg, 0.083 h",,plasma concentration,478 ng/mL and 245 ng/mL and 235 ng/mL
CCCCN1C(=O)c2cccc3c(NCCCCCCCCCCN4CCOCC4)ccc(c23)C1=O,,water,pH 6.0,,fluorescence lifetime,4.2 ns
O=C(O)CN1CCN(CC(=O)O)CCN(Cc2cccc(P(=O)(O)O)n2)CC1,potentiometric titration,,aliphatic carboxylate deprotonation,,log Ka,2.42
Cc1c(Cc2cccc(OC(C)(C)C(=O)O)c2)c2ccc(C(=O)N[C@@H](C)c3cc(C(C)(C)C)ccc3F)cc2n1CC(C)C,,human liver microsomes,"1 µM, added: microsomes 1 mg/mL",,half-life,52 min
N#C[C@@H]1CC(F)(F)CN1C(=O)CNC(=O)c1ccnc2c(NC(=O)CCOCCOCCOCCOCCOCCOCCNC(=O)[C@H](CCCCNC(=O)CN3CCN(CC(=O)[O-])CCN(CC(=O)[O-])CCN(CC(=O)[O-])CC3)NC(=O)CCCc3ccc(I)cc3)cccc12.[177Lu+3],,"mouse, U-87 MG tumour xenograft, lung",4 h,,tissue uptake,2.57 ± 0.39 %ID/g
CC[C@H](C)[C@H](NC(=O)[C@H](CCCCN)NC(=O)[C@H](CCC(=O)O)NC(=O)[C@H](CCCCN)NC(=O)[C@H](CC(C)C)NC(=O)[C@H](C)NC(=O)[C@H](C)NC(=O)[C@@H](NC(=O)[C@H](CCCCN)NC(=O)[C@@H]1CSCc2ccccc2CSC[C@H](NC(=O)[C@@H](NC(=O)[C@H](CCCCN)NC(C)=O)[C@@H](C)CC)C(=O)N[C@@H](C)C(=O)N[C@@H](CC(C)C)C(=O)N[C@@H](CCCCN)C(=O)N1)[C@@H](C)CC)C(=O)N[C@@H](C)C(=O)N[C@@H](C)C(=O)N[C@@H](CC(C)C)C(=O)N[C@@H](CCCCN)C(=O)N[C@@H](CCC(=O)O)C(=O)NCC(=O)N[C@@H](Cc1c[nH]c2ccccc12)C(N)=O,tryptophan fluorescence titration,DOPC/DOPE/cholesterol 2:1:1 liposomes in PBS,,,ΔG of membrane partitioning,-7.3 kcal/mol
CC(=O)N([O-])CCCCCNC(=O)CCC(=O)N([O-])CCCCCNC(=O)CCC(=O)N([O-])CCCCCN.[89Zr+4],radio-TLC,aqueous buffer,"1 d, pH 7.2, 37 °C, 89Zr-labelled complex, added: FeCl3 100-fold excess",,intact complex,46.6 ± 0.6%
CN([O-])C(=O)CN1CCN(CC(=O)N(C)[O-])CCN(Cc2ccccn2)CC1.[89Zr+4],,"mouse, pancreas","intravenous, 1 h",,tracer uptake,0.9 %ID/g
COC(=O)[C@@]1(C(C)C)C=C(C(=O)Nc2cccc(C(=O)Nc3ccc(Nc4nccc(-c5cccnc5)n4)c(C)c3)c2)C(=O)CC1,,"rat, plasma","10 µM, 30 min",,compound remaining,94.7%
CC(C)(O)c1ncc([S@](N)(=O)=NC(=O)Nc2c3c(cc4c2CCC4)CCC3)s1,,healthy human,"oral, 10 mg single dose, capsule formulation",,total adverse events,33%
N#Cc1cccc(-c2ccc3ncc(-c4cc(F)cc(F)c4)c(N4CCC(NC(=O)OC5OC(C(=O)O)C(O)C(O)C5O)CC4)c3c2)c1O (centres unmarked),,"human, urine","oral, 20 mg, 72 h, 14C-paltusotine dosed",,radioactivity recovered,0.17 %dose
C[C@@H]1O[C@@H](O[C@@H]2[C@@H](O)[C@H](O)[C@@H](CO)O[C@H]2c2c(O)cc(O)c3c(=O)cc(-c4ccc(O)cc4)oc23)[C@H](O)[C@H](O)[C@H]1O,,Caco-2,100 µg/mL,,efflux ratio,0.95
C#CCOCCOCCOCCOCCn1cc(C(ONC(=O)/C=C/C(C)=C/C2(C)Oc3cc(N(C)C)ccc3C2=O)(c2ccc(C)cc2)c2ccc(C)cc2)nn1 (centres unmarked),HPLC,"aqueous buffer, 20% acetonitrile","concentration not given, 1260 min, pH 3",baseline: initial prodrug amount,release from prodrug hydrolysis,12.5%
Cc1c(Cc2cc(Cl)cc(OC(C)C(=O)O)c2)c2ccc(C(=O)NC(C)c3ccc(C(C)(C)C)cc3)cc2n1C(C)C (centres unmarked),,human liver microsomes,,,half-life,35.5 min
Cc1cccc(O[C@H]2CCC[C@@H](C(C)CNCc3ccncc3)C2)c1 (relative stereo),,C57BL/6 mouse adult female,"50 mg/kg, one month, toxicity study",,body weight,28 g
C/C(N)=N/C(=N\S(=O)(=O)c1ccc(C(F)(F)F)cc1)N1C[C@H](c2ccccc2)C(c2ccc(Cl)cc2)=N1,,"male C57BL/6 mouse, lung","oral, 10 mg/kg",,AUC(0-inf),44500 ng·h/mL
CN1CCC[C@]1(C)/C=C/S(=O)(=O)NC(=O)Nc1c2c(cc3c1C(O)CC3)CCC2 (some centres unmarked),,"human, plasma","oral, 12.5 mg twice daily of parent drug, day 14, metabolite of dosed drug",,Cmax at first steady-state dose,3200 ng/mL
O=S(=O)(NCc1ccncc1)c1ccc(C2CCCCC2)cc1,,CK-p25 mouse,0.3 mg/kg,baseline: vehicle,swim speed change,15 ± 3 cm/s
C=CC(=O)N1CCCC(n2c(=O)c3ncccc3n(Cc3ccc(Oc4ccccc4)cc3)c2=O)C1 (centres unmarked),metabolic stability,"male beagle dog, hepatocytes","1 µM, 2 h",,compound remaining,18.8%
O=C(O)CCCOc1ccc([18F])cc1-c1cc(-c2ccccc2C(F)(F)F)n(-c2ccccc2)n1,,"mouse, urine","intravenous, dose not given, 60 min",,tissue uptake,0.05 ± 0.03 %ID/g
CN(C)S(=O)(=O)c1ccc(S(=O)(=O)N2CCC(n3c(=O)[nH]c4ccccc43)CC2)cc1,,mouse,"intraperitoneal, 6 mg/kg, 1 day",baseline: day 0,body weight,94.8%
CC(C)C[C@H](NC(=O)[C@H](CCCCN)NC(=O)[C@H](CC(C)C)NC(=O)[C@H](CCCCN)NC(=O)C1CCCC=CCCC(NC(=O)[C@H](CCCCN)NC(=O)[C@H](CC(C)C)NC(=O)[C@H](CCCCN)NC(=O)[C@@H](N)CC(C)C)C(=O)N[C@@H](CCCCN)C(=O)N2CCC[C@@H]2C(=O)NCC(=O)N[C@@H](CCCCN)C(=O)N1)C(N)=O (some centres unmarked),RP-HPLC C18,,hydrophobicity,,retention time,14.3 min
O=C(Nc1cnccc1-c1ccc([18F])cc1)c1ccnc(NC(=O)C2CC2)c1,,"mice, transgenic, GSK-3β, early-stage, blood","intravenous, dose not given, 120 min",,SUV,0.17
O=c1c2sccc2n(CC2COc3ccccc3O2)c(=O)n1O (centres unmarked),,Caco-2,10 µM,,Papp B→A,5.6 ×10⁻⁶ cm/s
COc1cccc(OC)c1-c1cc(C(=O)NC2(C(=O)O)C3CC4CC(C3)CC2C4)nn1-c1ccc(C(=O)N(C)CCCN(C)CCCN(C)C(=O)[C@H](CCCCNC(=O)[C@H](CC(C)C)NC(=O)C2OC2C(=O)O)NC(=O)CN2CCN(CC(=O)[O-])CCN(CC(=O)[O-])CCN(CC(=O)[O-])CC2)cc1C(C)C.[177Lu+3] (mixture of isomers),,"mouse HT-29 xenograft, small intestine","72 h post injection, biodistribution",,tissue uptake,0.282 %ID/g
C=CC(=O)Nc1cc(Nc2nccc(-c3c[nH]c4ccccc34)n2)c(OC)cc1N(C)CCN(C)C,storage stability,human dried blood spots,"24 h, -80 °C, low QC level",,recovery,101%
Cc1nn(-c2nc3c(F)cc(F)cc3s2)c(O)c1C(c1ccc(C(F)(F)F)cc1)c1c(C)nn(-c2nc3c(F)cc(F)cc3s2)c1O,,ICR mouse,"intravenous, 5 mg/kg, 3 min",,plasma concentration,8540 ng/mL and 21600 ng/mL and 11700 ng/mL
CN1CCCNC(=O)c2cccc(c2)C(=O)NCCCN(C)CCCNc2cccc3c2C(=O)c2cccc(c2C3=O)NCCC1,,mouse xenograft model,"dose not given, day 8, group mean",,body weight,26.4 g
[11CH3]N1CCC(NC(=O)c2cc(-c3c(O)cc(O)cc3Oc3ccc([N+](=O)[O-])cc3)on2)CC1,,"Wistar rat, female, healthy, spleen","intravenous, 18.5 MBq, 10 min",,SUV,2.2 ± 0.1
O=C(Nc1cnccc1-c1ccc([18F])nc1)c1ccnc(NC(=O)C2CC2)c1,PET imaging,"FVB/NJ mice, both sexes, brain","intravenous, 10 min post-injection",,SUV,0.099

# Some of these lines once more:
SMILES,test,test system,conditions,scale,endpoint,value
CC(C)=CCC1=C([O-])C(=O)c2ccccc2C1=O.CC(C)=CCC1=C([O-])C(=O)c2ccccc2C1=O.O.[Cu+2].c1ccc(-c2ccccn2)nc1,cyclic voltammetry,"CH2Cl2, Bu4NPF6",0.1 mM,baseline: Ag/AgCl sat. KOH,Epa1 anodic peak potential,1.45 V
CNc1cc(N)c(C(N)=O)cn1,,"Han Wistar rats, male, plasma","oral, 30 mg/kg, 3.00 h",,concentration at time,8.01 µM
